Assay results of several laboratories.
Compare with care: the assays were run in different laboratories.
Organism: Enterococcus faecium

SMILES	test	test system	setting	MIC
CCCCCCC#Cc1cncc(-c2nnc(SCc3cc([N+](=O)[O-])cc([N+](=O)[O-])c3)n2C)c1	broth microdilution	ATCC 51559 MDR VRE	18 to 24 h, 37 °C	> 64 µg/mL
CC(C)CCCCCCCCC/C=C/C(=O)N[C@@H](CC(=O)O)C(=O)N[C@H]1CNC(=O)[C@@H]2CCCN2C(=O)[C@H](C(C)C)NC(=O)[C@@H](CN)NC(=O)CNC(=O)[C@H](CC(=O)O)NC(=O)CNC(=O)[C@H](CC(=O)O)NC(=O)[C@H](CC(=O)O)NC(=O)[C@H]2CCCCN2C1=O	broth microdilution	daptomycin-resistant isolate, Mueller-Hinton broth, Mg2+ 10 mg/L	16 h, added: Ca2+ 2.5 mM	4 µg/mL
CN[C@H](CC(C)C)C(=O)N[C@H]1C(=O)N[C@@H](CC(N)=O)C(=O)N[C@H]2C(=O)N[C@H]3C(=O)N[C@H](C(=O)N[C@H](C(=O)NCC(N)=O)c4cc(O)cc(O)c4-c4cc3ccc4O)[C@H](O)c3ccc(c(Cl)c3)Oc3cc2cc(c3O[C@@H]2O[C@H](CO)[C@@H](O)[C@H](O)[C@H]2O[C@H]2C[C@](C)(NCc3ccc(OCc4cn(CC(=O)N[C@H](C(=O)N[C@@H](CCN)C(=O)N[C@H]5CCNC(=O)[C@H]([C@@H](C)O)NC(=O)[C@H](CCN)NC(=O)[C@H](CCN)NC(=O)[C@H](CC(C)C)NC(=O)[C@@H](CC(C)C)NC(=O)[C@H](CCN)NC5=O)[C@@H](C)O)nn4)c(OC)c3)[C@H](O)[C@H](C)O2)Oc2ccc(cc2Cl)[C@H]1O	–	VRE vanB	–	0.19 µM
CC[C@H](C)[C@H](NC(=O)[C@H](Cc1c[nH]c2ccccc12)NC(=O)[C@H](Cc1ccc(O)cc1)NC(=O)[C@H](CCCCN)NC(=O)[C@H](CC(C)C)NC(=O)[C@H](CO)NC(=O)[C@@H](N)Cc1ccccc1)C(=O)N[C@@H](CCCNC(=N)N)C(=O)N[C@@H](Cc1ccc(O)cc1)C(=O)N[C@@H](CCCCN)C(=O)N[C@@H](CCCNC(=N)N)C(=O)N[C@@H](CCC(N)=O)C(=O)NCC(=O)N[C@@H](C)C(=O)N[C@@H](C)C(=O)N[C@@H](CCCNC(=N)N)C(=O)N[C@@H](Cc1ccccc1)C(N)=O	broth dilution	KCTC 13225	–	25 µM
CC[C@H](C)[C@H](NC(=O)[C@@H](CCC(=O)O)NC(=O)[C@H](CC(C)C)NC(=O)c1cccc(C(=O)O)n1)C(=O)N[C@H]1CCCCNC(=O)[C@H](CC(N)=O)NC(=O)[C@@H](CC(=O)O)NC(=O)[C@H](Cc2c[nH]cn2)NC(=O)[C@@H](Cc2ccccc2)NC(=O)[C@H]([C@@H](C)CC)NC(=O)[C@@H](CCCN)NC1=O	–	VanB vancomycin-resistant	18 h, 37 °C, 0.3 mM ZnSO4 LB	> 64 µg/mL
c1ccc(CCNC2CCCc3c2[nH]c2ccc(C4CCCCC4)cc32)cc1 (stereo not shown)	broth microdilution	BM4147 vancomycin-resistant	–	2 µg/mL
CC[C@H](C)[C@H](N)C(=O)N[C@@H](CCCNC(=N)N)C(=O)N[C@H](C(=O)N[C@@H](Cc1c[nH]c2ccccc12)C(=O)N[C@@H](Cc1ccccc1)C(=O)N[C@H](C(=O)N[C@@H](CCCCN)C(=O)N[C@H](C(=O)N[C@@H](CCCNC(=N)N)C(=O)N[C@@H](CCCCN)C(=O)N[C@@H](CCSC)C(=O)N[C@@H](CCCCN)C(=O)N[C@@H](C)C(=O)N[C@H](C(=O)N[C@@H](Cc1ccc(O)cc1)C(=O)N[C@@H](Cc1c[nH]cn1)C(=O)N[C@H](C(N)=O)[C@@H](C)O)[C@@H](C)CC)C(C)C)[C@@H](C)CC)C(C)C	broth dilution	KCTC 13225	–	25 µM
CC(C)CCCCCCCCC/C=C/C(=O)N[C@@H](CC(N)=O)C(=O)N[C@H]1CNC(=O)[C@@H]2CCCN2C(=O)[C@H](C(C)C)NC(=O)[C@@H](CN)NC(=O)CNC(=O)[C@H](CC(=O)O)NC(=O)CNC(=O)[C@H](CC(=O)O)NC(=O)[C@H](CC(=O)O)NC(=O)[C@H]2CCCCN2C1=O	broth microdilution	daptomycin-resistant isolate, Mueller-Hinton broth, Mg2+ 10 mg/L	16 h, added: Ca2+ 2.5 mM	2 µg/mL
C#CCOc1ccc(CN[C@@]2(C)C[C@H](O[C@H]3[C@H](Oc4c5cc6cc4Oc4ccc(cc4Cl)[C@@H](O)[C@@H](NC(=O)[C@@H](CC(C)C)NC)C(=O)N[C@@H](CC(N)=O)C(=O)N[C@H]6C(=O)N[C@H]4C(=O)N[C@H](C(=O)N[C@H](C(=O)N[C@@H](CCCNC(=N)N)C(N)=O)c6cc(O)cc(O)c6-c6cc4ccc6O)[C@H](O)c4ccc(c(Cl)c4)O5)O[C@H](CO)[C@@H](O)[C@@H]3O)O[C@@H](C)[C@H]2O)cc1OC	broth microdilution	vancomycin-resistant vanB, tryptic soy broth	20 to 24 h, 37 °C, 0.002% polysorbate 80	4 µg/mL
c1ccc2c(c1)nc(CNCC13CC4CC(CC(C4)C1)C3)n2CC1CCCCC1	–	ATCC 19434	–	16 µg/mL
CN[C@H](CC(C)C)C(=O)N[C@H]1C(=O)N[C@@H](CC(N)=O)C(=O)N[C@H]2C(=O)N[C@H]3C(=O)N[C@H](C(=O)N[C@H](C(=O)NCc4cn(CCCCC(=O)N[C@H](C(=O)N[C@@H](CCN)C(=O)N[C@H]5CCNC(=O)[C@H]([C@@H](C)O)NC(=O)[C@H](CCN)NC(=O)[C@H](CCN)NC(=O)[C@H](CC(C)C)NC(=O)[C@@H](CC(C)C)NC(=O)[C@H](CCN)NC5=O)[C@@H](C)O)nn4)c4cc(O)cc(O)c4-c4cc3ccc4O)[C@H](O)c3ccc(c(Cl)c3)Oc3cc2cc(c3O[C@@H]2O[C@H](CO)[C@@H](O)[C@H](O)[C@H]2O[C@H]2C[C@](C)(N)[C@H](O)[C@H](C)O2)Oc2ccc(cc2Cl)[C@H]1O	broth microdilution	vancomycin-resistant vanB, tryptic soy broth	20 to 24 h, 37 °C, 0.002% polysorbate 80	8 µg/mL
CC[C@H](C)[C@@H]1NC(=O)[C@@H]([C@@H](C)O)NC(=O)CNC(=O)[C@H](CC(=O)O)NC(=O)CNC(=O)[C@H](CC(=O)O)NC(=O)CNC(=O)[C@H]2CCCCN2C(=O)[C@@H](NC(=O)[C@H](CC(=O)O)NC(=O)/C=C/CCCCCCCCCC(C)C)CNC(=O)[C@@H]2CCCN2C1=O	broth microdilution	daptomycin-resistant isolate, Mueller-Hinton broth, Mg2+ 10 mg/L	16 h, added: Ca2+ 2.5 mM	16 µg/mL
CN[C@H](CC(C)C)C(=O)N[C@H]1C(=O)N[C@@H](CC(N)=O)C(=O)N[C@H]2C(=O)N[C@H]3C(=O)N[C@H](C(=O)N[C@H](C(=O)O)c4cc(O)cc(O)c4-c4cc3ccc4O)[C@H](O)c3ccc(c(Cl)c3)Oc3cc2cc(c3O[C@@H]2O[C@H](CO)[C@@H](O)[C@H](O)[C@H]2O[C@H]2C[C@](C)(NCc3ccc(OCc4cn(CCCCC(=O)N[C@H](C(=O)N[C@@H](CCN)C(=O)N[C@H]5CCNC(=O)[C@H]([C@@H](C)O)NC(=O)[C@H](CCN)NC(=O)[C@H](CCN)NC(=O)[C@H](CC(C)C)NC(=O)[C@@H](CC(C)C)NC(=O)[C@H](CCN)NC5=O)[C@@H](C)O)nn4)c(OC)c3)[C@H](O)[C@H](C)O2)Oc2ccc(cc2Cl)[C@H]1O	broth microdilution	vancomycin-resistant vanB, tryptic soy broth	20 to 24 h, 37 °C, 0.002% polysorbate 80	8 µg/mL
CC[C@H](C)[C@H](NC(=O)[C@H](Cc1c[nH]c2ccccc12)NC(=O)[C@H](Cc1ccc(O)cc1)NC(=O)[C@H](CCCCN)NC(=O)[C@H](CC(C)C)NC(=O)[C@@H](N)CO)C(=O)N[C@@H](CCCNC(=N)N)C(=O)N[C@@H](Cc1ccc(O)cc1)C(=O)N[C@@H](CCCCN)C(=O)N[C@@H](CCCNC(=N)N)C(=O)N[C@@H](CCC(N)=O)C(=O)NCC(=O)N[C@@H](C)C(=O)N[C@@H](C)C(=O)N[C@@H](CCCNC(=N)N)C(=O)N[C@@H](Cc1ccccc1)C(N)=O	broth dilution	KCTC 13225	–	25 µM
CN[C@H](CC(C)C)C(=O)N[C@H]1C(=O)N[C@@H](CC(N)=O)C(=O)N[C@H]2C(=O)N[C@H]3C(=O)N[C@H](C(=O)N[C@H](C(=O)N[C@@H](CCCNC(=N)N)C(N)=O)c4cc(O)cc(O)c4-c4cc3ccc4O)[C@H](O)c3ccc(c(Cl)c3)Oc3cc2cc(c3O[C@@H]2O[C@H](CO)[C@@H](O)[C@H](O)[C@H]2O[C@H]2C[C@](C)(NCc3ccc(OCc4cn(CC(=O)N[C@H](C(=O)N[C@@H](CCN)C(=O)N[C@H]5CCNC(=O)[C@H]([C@@H](C)O)NC(=O)[C@H](CCN)NC(=O)[C@H](CCN)NC(=O)[C@H](CC(C)C)NC(=O)[C@@H](CC(C)C)NC(=O)[C@H](CCN)NC5=O)[C@@H](C)O)nn4)c(OC)c3)[C@H](O)[C@H](C)O2)Oc2ccc(cc2Cl)[C@H]1O	broth microdilution	vancomycin-resistant vanB, tryptic soy broth	20 to 24 h, 37 °C, 0.002% polysorbate 80	0.031 µg/mL
CC[C@H](C)[C@H](N)C(=O)N[C@@H](C)C(=O)N[C@@H](CC(C)C)C(=O)N[C@H](CCC(=O)O)C(=O)N[C@H](C(=O)N[C@H]1CCCCNC(=O)[C@H](CC(N)=O)NC(=O)[C@@H](CC(=O)O)NC(=O)[C@H](Cc2c[nH]cn2)NC(=O)[C@@H](Cc2ccccc2)NC(=O)[C@H]([C@@H](C)CC)NC(=O)[C@@H](CCCN)NC1=O)[C@@H](C)CC	–	VanB vancomycin-resistant	18 h, 37 °C, 0.3 mM ZnSO4 LB	> 64 µg/mL
